Experimental data of several laboratories.
Compare with care: the assays were run in different laboratories. ± marks the error that the study gave.
CNR2: Cannabinoid receptor 2 (CNR2, Homo sapiens, UniProt P34972)
UniProt P34972, sequence (whole entry, looked up): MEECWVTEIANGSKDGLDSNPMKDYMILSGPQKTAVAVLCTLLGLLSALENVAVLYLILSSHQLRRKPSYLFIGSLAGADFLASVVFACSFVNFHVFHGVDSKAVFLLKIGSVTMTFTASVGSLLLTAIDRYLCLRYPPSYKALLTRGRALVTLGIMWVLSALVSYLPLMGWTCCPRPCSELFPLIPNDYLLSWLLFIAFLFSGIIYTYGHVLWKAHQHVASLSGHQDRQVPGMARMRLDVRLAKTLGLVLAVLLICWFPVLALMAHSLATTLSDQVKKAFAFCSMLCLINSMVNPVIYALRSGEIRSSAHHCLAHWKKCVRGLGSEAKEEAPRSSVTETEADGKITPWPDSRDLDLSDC
tmk: Thymidylate kinase (tmk, Mycobacterium tuberculosis, UniProt P9WKE1)
UniProt P21554, sequence (whole entry, unmodified, looked up): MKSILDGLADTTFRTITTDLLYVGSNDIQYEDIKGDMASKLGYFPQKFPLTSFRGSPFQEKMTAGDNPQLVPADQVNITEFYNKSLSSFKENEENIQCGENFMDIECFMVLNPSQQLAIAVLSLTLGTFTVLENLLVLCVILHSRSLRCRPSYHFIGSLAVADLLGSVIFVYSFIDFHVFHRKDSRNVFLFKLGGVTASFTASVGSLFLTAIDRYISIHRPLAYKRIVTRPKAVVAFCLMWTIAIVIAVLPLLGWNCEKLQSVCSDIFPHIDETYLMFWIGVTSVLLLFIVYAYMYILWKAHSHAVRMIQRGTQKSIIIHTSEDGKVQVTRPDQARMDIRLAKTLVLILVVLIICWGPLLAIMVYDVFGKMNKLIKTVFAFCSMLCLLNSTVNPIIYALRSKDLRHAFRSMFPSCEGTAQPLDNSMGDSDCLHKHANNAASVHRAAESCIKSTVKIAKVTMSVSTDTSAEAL
UniProt P9WKE1, sequence (whole entry, looked up): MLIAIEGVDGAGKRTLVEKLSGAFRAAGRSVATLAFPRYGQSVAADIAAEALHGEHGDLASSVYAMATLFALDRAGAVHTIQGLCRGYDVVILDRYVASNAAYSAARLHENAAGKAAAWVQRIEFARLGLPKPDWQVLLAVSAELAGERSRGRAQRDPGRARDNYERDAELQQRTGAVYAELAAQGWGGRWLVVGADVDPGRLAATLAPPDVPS
UniProt P09619, sequence (whole entry, looked up): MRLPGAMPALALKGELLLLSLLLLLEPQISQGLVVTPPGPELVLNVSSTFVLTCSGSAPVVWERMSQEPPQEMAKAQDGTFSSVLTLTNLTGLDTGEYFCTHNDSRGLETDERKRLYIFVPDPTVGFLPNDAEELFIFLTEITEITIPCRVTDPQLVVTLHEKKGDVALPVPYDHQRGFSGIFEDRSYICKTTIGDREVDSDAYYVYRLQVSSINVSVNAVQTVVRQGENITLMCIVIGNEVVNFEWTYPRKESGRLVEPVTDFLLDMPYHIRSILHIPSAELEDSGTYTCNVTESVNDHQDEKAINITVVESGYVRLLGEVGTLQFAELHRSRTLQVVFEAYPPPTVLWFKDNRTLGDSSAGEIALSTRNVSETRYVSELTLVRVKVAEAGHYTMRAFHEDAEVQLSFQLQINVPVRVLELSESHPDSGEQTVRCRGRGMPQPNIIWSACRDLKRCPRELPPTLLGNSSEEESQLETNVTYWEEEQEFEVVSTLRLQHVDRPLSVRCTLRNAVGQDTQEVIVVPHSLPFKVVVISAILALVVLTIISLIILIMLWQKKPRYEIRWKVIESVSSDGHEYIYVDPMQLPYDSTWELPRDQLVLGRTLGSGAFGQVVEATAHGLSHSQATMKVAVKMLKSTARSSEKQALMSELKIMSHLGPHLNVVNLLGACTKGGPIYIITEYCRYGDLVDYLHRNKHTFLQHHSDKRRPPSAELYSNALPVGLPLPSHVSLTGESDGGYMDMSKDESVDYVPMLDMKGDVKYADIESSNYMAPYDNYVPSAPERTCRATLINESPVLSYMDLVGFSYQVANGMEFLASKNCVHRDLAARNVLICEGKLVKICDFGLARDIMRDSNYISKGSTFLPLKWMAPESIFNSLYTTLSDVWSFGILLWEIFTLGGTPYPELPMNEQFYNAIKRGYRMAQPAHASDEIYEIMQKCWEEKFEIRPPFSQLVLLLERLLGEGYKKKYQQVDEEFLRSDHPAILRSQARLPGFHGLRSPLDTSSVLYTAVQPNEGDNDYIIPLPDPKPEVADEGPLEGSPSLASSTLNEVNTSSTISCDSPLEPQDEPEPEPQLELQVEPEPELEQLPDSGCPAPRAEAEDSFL
UniProt P47898, sequence (whole entry, looked up): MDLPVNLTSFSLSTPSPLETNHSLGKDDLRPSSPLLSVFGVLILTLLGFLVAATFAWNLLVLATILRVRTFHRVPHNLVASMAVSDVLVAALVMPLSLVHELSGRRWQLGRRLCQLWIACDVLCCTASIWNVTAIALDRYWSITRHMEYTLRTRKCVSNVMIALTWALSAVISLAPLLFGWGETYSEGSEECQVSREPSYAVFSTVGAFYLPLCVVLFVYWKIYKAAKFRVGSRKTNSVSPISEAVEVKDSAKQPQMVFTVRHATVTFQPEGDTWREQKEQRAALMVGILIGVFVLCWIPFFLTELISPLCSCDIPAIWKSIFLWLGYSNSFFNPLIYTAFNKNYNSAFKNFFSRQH
UniProt P00519, sequence (whole entry, unmodified, looked up): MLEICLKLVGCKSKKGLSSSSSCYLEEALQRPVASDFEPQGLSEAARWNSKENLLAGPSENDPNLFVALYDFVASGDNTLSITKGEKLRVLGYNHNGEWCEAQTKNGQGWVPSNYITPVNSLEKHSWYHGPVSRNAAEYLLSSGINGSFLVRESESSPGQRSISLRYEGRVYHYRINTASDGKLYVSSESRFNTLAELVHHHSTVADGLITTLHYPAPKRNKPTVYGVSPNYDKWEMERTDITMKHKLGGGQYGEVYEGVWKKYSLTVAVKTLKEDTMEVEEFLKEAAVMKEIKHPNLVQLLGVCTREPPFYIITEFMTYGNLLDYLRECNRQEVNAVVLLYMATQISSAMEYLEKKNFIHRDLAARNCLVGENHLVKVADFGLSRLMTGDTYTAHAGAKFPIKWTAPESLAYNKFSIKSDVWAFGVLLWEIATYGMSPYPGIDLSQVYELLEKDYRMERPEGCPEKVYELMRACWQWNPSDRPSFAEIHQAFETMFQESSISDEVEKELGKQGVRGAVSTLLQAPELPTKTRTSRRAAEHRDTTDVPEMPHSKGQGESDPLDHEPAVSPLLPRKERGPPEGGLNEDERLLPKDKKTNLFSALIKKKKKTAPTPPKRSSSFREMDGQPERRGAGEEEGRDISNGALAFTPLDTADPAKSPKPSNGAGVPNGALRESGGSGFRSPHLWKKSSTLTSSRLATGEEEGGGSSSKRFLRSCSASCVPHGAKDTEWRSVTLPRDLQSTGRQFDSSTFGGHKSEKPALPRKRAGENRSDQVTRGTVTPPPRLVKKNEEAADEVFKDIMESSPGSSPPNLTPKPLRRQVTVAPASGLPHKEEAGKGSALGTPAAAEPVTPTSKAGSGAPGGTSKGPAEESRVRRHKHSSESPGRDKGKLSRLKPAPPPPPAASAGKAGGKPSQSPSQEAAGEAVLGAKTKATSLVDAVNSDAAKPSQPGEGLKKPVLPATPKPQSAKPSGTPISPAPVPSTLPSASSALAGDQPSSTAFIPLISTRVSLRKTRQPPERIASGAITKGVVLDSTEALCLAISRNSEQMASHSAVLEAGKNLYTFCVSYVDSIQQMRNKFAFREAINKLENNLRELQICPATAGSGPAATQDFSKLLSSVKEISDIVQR
UniProt Q61205, sequence (whole entry, looked up): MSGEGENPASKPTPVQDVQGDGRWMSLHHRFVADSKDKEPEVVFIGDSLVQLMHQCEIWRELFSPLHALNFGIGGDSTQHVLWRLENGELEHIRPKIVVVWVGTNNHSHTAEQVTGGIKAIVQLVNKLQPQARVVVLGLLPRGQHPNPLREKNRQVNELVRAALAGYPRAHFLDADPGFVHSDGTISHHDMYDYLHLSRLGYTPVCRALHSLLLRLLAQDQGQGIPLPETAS
UniProt P08631, sequence (whole entry, unmodified, looked up): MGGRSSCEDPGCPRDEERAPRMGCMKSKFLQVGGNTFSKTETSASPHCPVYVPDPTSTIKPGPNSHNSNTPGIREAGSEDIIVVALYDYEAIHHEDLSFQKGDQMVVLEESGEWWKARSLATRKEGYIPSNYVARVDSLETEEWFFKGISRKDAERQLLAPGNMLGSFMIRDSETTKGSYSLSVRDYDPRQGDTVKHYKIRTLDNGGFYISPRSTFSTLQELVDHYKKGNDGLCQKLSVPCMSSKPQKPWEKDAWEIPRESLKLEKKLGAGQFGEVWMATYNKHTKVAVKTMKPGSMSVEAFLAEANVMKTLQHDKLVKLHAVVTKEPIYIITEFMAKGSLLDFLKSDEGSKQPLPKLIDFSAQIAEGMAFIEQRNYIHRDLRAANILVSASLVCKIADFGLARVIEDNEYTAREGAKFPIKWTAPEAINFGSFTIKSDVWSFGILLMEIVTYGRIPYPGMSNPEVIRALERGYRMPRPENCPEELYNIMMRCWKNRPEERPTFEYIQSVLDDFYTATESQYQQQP
UniProt Q01959, sequence (whole entry, looked up): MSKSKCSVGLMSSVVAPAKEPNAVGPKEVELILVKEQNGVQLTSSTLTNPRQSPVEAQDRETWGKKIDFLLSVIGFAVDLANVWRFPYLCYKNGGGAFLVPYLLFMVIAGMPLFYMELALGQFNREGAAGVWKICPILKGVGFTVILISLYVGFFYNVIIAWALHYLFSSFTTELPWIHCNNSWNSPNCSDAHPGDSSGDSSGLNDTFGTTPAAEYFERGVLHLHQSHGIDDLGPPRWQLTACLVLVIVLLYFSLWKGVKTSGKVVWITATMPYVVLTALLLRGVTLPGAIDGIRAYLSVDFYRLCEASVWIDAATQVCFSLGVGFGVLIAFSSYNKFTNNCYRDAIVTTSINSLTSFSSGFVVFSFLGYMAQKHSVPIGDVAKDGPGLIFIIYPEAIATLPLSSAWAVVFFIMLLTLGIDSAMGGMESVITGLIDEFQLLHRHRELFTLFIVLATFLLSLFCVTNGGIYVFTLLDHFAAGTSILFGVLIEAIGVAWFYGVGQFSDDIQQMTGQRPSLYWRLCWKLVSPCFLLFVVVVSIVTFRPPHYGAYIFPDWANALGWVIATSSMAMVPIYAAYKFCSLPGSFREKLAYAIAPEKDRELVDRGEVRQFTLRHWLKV

| Compound | target or system | test | test system | conditions | how to read | quantity | value |
| --- | --- | --- | --- | --- | --- | --- | --- |
| O=[N+]([O-])CC(c1ccco1)c1c(-c2ccccc2)[nH]c2ccccc12 (stereo not shown) | Cannabinoid receptor 1, with Gi1 (CNR1, Homo sapiens, UniProt P21554) | Gi1 dissociation, agonist, BRET |  |  |  | Emax | 69.5 ± 5.42% |
| CN(C)[C@H]1C[C@@]23CC[C@@]4(O2)C(=CC[C@]2(C)[C@@H](c5ccc6ccncc6c5)CC[C@H]24)C=C3[C@@H](O)[C@@H]1O | Tyrosine-protein kinase JAK3, JH2 pseudokinase domain (JAK3, Homo sapiens, UniProt P52333) | ATP probe labelling, inhibitor, KiNativ profiling |  | 0.1 µM |  | inhibition | 4.1% |
| O=C(NC1CCN(c2ncnc3[nH]cnc23)CC1)c1cccc(NS(=O)(=O)c2ccc(C(F)(F)F)cc2)c1 | Replicase polyprotein 1ab, nsp14 (rep, Human coronavirus 229E, UniProt P0C6X1) | enzyme activity |  | 0.01221 µM |  | inhibition | 7.54% |
| Cc1sc2c(c1C)C(c1ccc(Cl)cc1)=NC(CC(=O)OC(C)(C)C)c1nnc(C)n1-2 (stereo not shown) | 5-hydroxytryptamine receptor 5A (HTR5A, Homo sapiens, UniProt P47898) | ligand displacement, radioligand |  | 1 µM |  | remaining binding | 107% |
| Cc1ccc2c(C(C[N+](=O)[O-])c3cccs3)c(-c3ccccc3)[nH]c2c1 (stereo not shown) | Cannabinoid receptor 1 (CNR1, Homo sapiens, UniProt P21554, V171A) | β-arrestin recruitment, agonist, luciferase |  |  |  | Emax | 63.7% |
| Nc1ccc(/C=C/C(=O)N2CCc3c(oc4c(-c5ccc(F)cc5)cc(-c5ccc(C(=O)N6CCC(F)(F)CC6)cn5)cc34)C2)cn1 | Tyrosine-protein kinase ABL1, phosphorylated (ABL1, Homo sapiens, UniProt P00519, E255K) | binding, competition with immobilised ligand |  | 1 µM |  | remaining binding | 76% |
| O=C1NC2(CC2)COc2ncc(F)cc2[C@H]2COCCN2c2ccn3ncc1c3n2 |  |  | Sprague-Dawley rat, male, serum | oral, 10 mg/kg/day, 4 weeks daily, end of recovery period |  | pancreatic amylase activity | 1960 ± 146 U/L |
| CC(C)CC(O)(CC(C)C)c1cn(C(=O)N2CCCC2)nn1 | Platelet-activating factor acetylhydrolase IB subunit alpha1 (Pafah1b3, Mus musculus, UniProt Q61205) | probe labelling, inhibitor, competitive ABPP-SILAC, measured: Pafah1b3 | mouse T cells | concentration not given, 4 h, protein level | baseline: treated over DMSO cells, lower = stronger inhibition | median SILAC activity ratio | 1.22 |
| CCCCCn1cc(C(=O)c2ccc3c(c2)CC(C)(C)C3)c2ccccc21 | CNR2 | cAMP inhibition, agonist, CAMYEL BRET biosensor |  | with: forskolin 10 µM | baseline: reference agonist at wild type | Emax | 48.1 ± 4.3% |
| CCC[C@@H](C(=O)c1ccccc1)N1CCCC1 | Sodium-dependent dopamine transporter (SLC6A3, Homo sapiens, UniProt Q01959) | DAT-mediated current recovery, electrophysiology | human DAT-expressing cells | with: 30 µM dopamine |  | koff | 0.028 s⁻¹ |
| CS(C)(=O)=Nc1ccc(-c2ccc(-c3nc4cc(O[C@@H]5CO[C@H]6[C@@H]5OC[C@H]6O)[nH]c4cc3F)cc2)cc1 | B2 bradykinin receptor (BDKRB2, Homo sapiens, UniProt P30411) | calcium signal, antagonist |  | 10 µM |  | inhibition | 49% |
| CCOC(=O)C1=C(C)NC(=S)NC1c1ccc([N+](=O)[O-])o1 (racemic) | tmk | enzyme activity, inhibitor, absorbance |  | 0.01 µg/mL |  | inhibition | 33.9% |
| COc1ccccc1C(C[N+](=O)[O-])c1c(-c2ccccc2)[nH]c2ccccc12 (stereo not shown) | Cannabinoid receptor 1 (CNR1, Homo sapiens, UniProt P21554, I245A) | Gαi1-γ2 dissociation, BRET |  |  |  | Emax | 57 ± 5.08% |
| O=C1NC(=O)c2c1c1cc(F)c[n+]3c1c1c2c2cc(O)ccc2[n]1[Ru-4]312([N]=C=S)[S+]3CC[S+]1CC[S+]2CC3 (stereo not shown) | Platelet-derived growth factor receptor beta (PDGFRB, Homo sapiens, UniProt P09619) | enzyme activity |  | 100 nM, human enzyme, with: 10 µM ATP | baseline: untreated | remaining activity | 111% |
| CC(C)(C)n1nc(-c2ccc(Cl)cc2)c2c(N)ncnc21 | Tyrosine-protein kinase HCK (HCK, Homo sapiens, UniProt P08631, Y411F) |  |  | concentration not given |  | bound fraction | 86% |
| Cc1cn(C2CC(O)C(COP(=O)(O)O)O2)c(=O)[nH]c1=O (stereo not shown) | tmk | enzyme activity, inhibitor, absorbance |  | 10 µg/mL |  | inhibition | 89% |
| CC(C)[C@H]1NC(=O)C[C@H]2/C=C/CCSSC[C@@H](NC1=O)C(=O)N[C@H](Cc1cccc3ccccc13)C(=O)NCC(=O)O2 | Dual specificity mitogen-activated protein kinase kinase 4 (MAP2K4, Homo sapiens, UniProt P45985) |  |  | 10 µM |  | inhibition | -1.4% |
| CNCCc1c[nH]c2ccc(O)cc12 | NMT from Rhinella marina |  |  | 10 min, 30 °C |  | Km | 60.8 ± 15.8 µM |
| CCCCCn1cc(C(=O)c2cccc3ccccc23)c2ccccc21 | CNR2 | cAMP inhibition, agonist, CAMYEL BRET biosensor |  | with: forskolin 10 µM | baseline: reference agonist at wild type | Emax | 79.6 ± 4% |
